Experimental data pooled from the literature.
Numbered parts are unrelated; each lists some results of a single study. Positions count from the first letter of the parent shown.

Series 1
Target: vanadate, free oxyanion
Technique: microfluidic competitive inhibition
Sample: in vitro, cell-free expressed
Concentration: not given
Notes: derived from inhibition constants, unchanged parent 676 nM
Reading: lower = stronger binding
Parent: PafA, mature enzyme, eGFP fusion (Elizabethkingia meningoseptica, UniProt Q9KJX5); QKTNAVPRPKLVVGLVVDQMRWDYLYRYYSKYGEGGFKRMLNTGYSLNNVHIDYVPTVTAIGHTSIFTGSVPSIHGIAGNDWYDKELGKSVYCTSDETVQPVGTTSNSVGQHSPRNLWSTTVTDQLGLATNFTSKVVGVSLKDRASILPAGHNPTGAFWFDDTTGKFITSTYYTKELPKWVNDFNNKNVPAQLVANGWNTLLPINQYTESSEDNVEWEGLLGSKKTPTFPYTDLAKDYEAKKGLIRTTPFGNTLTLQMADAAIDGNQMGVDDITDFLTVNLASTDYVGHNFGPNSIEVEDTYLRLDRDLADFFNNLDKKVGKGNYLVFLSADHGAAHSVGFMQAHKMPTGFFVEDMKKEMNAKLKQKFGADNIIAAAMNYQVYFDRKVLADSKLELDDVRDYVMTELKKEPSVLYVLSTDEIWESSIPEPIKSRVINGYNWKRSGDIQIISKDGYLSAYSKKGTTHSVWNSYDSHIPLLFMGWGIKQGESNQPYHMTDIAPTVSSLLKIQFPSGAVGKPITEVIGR
Under “oxyanion analog dissociation constant”, `N315G` is recorded as 618 nM.
Under “oxyanion analog dissociation constant”, `T208V` is recorded as 721 nM.
`P154V` — result for “oxyanion analog dissociation constant”: 777 nM.
Under “oxyanion analog dissociation constant”, `Q492V` is recorded as 628 nM.
For `K357G`, “oxyanion analog dissociation constant” read 733 nM.
`D233G`: “oxyanion analog dissociation constant” 617 nM.
`S140G` — result for “oxyanion analog dissociation constant”: 1.13 µM.
For `Y383V`, “oxyanion analog dissociation constant” read 745 nM.

Series 2
Target: 5-hydroxytryptamine receptor 2C (HTR2C, Homo sapiens, UniProt P28335)
Sequence of UniProt P28335 (whole entry, looked up): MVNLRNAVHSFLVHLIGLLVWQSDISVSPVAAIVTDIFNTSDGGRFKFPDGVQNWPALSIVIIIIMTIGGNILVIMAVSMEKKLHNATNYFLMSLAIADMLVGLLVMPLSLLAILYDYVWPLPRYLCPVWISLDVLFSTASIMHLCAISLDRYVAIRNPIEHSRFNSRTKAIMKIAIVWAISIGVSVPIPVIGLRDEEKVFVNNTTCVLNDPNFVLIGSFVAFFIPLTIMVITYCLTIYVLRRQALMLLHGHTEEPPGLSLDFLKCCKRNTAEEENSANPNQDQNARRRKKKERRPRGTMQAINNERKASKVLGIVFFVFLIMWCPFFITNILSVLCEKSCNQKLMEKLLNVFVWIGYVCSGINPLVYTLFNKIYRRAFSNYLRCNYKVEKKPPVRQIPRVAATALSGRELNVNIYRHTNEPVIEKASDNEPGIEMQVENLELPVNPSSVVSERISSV
Effect on: ligand displacement
Concentration: 10 µM
The inhibition of `C[C@@H](NC(=O)Nc1cc2[nH]ncc2c(CO)n1)c1ccccc1` is reported as 26.3%.
`Nc1cnc(N2CCc3cc(S(=O)(=O)Nc4c(F)cc(Cl)cc4F)cc(N4CCCC4=O)c32)nc1` gave an inhibition of -15.8%.
The inhibition of `O=C1c2ccc(Nc3ccc(F)cc3F)cc2CCc2ccc(OC[C@H](O)CO)cc21` is reported as 24%.
`CC(C)(C)OC(=O)N1CCCC1CNC1CCC(c2cc(F)ccc2F)(S(=O)(=O)c2ccc(Cl)cc2)CC1` (centres unmarked) has an inhibition of 80.9%.
The inhibition of `CN1C(=O)[C@@H](N2CCc3cn(Cc4ccccc4)nc3C2=O)COc2ccccc21` is reported as -2.89%.
The inhibition of `Cc1c(NC(=O)c2cc(C(N)=O)nc3cc(F)ccc23)c(C(F)(F)F)nn1Cc1ccc(C#N)cc1` is reported as 6.9%.
With `Cc1cc2c(-c3ccco3)cnc(N[C@@H]3CCN(C)C[C@H]3C(=O)NC3CCCCC3)c2[nH]c1=O` the inhibition was 14%.
With `C[C@H](c1ccnc(Nc2nc3ccc(-c4cc(N(C)C)ncn4)cc3[nH]2)c1)N1CCN(C(=O)CC(F)(F)F)CC1` the inhibition was 11.4%.
`COc1cc(-c2cn(C3CCc4c(F)cccc4N(CC(F)(F)F)C3=O)nn2)ccc1-n1cnc(C)c1` (centres unmarked) gave an inhibition of 27.6%.
`COc1cc(N[C@@H]2CCCC[C@]2(O)C(F)(F)F)ccc1F` gave an inhibition of -0.76%.
`CN1CCN(c2cnc3c(C4CCN(C(=O)c5ccc(OC(F)(F)F)cc5N)CC4)ncnc3c2)CC1` has an inhibition of -4.77%.
With `CCOc1ccc(S(=O)(=O)Nc2ccc(Cl)cc2C#Cc2cnc(C(=O)O)cc2OC)c2ncccc12` the inhibition was 24.4%.
The inhibition of `CN(C)C(=O)c1sc2nc(N3CCC(S(C)(=O)=O)CC3)cc(C(F)(F)F)c2c1N` is reported as 11.6%.

Series 3
Molecule: AAAVRKPIVLKR
Molecule type: peptide
Reading: direction not given
Saccharomyces cerevisiae; binding, yeast competitive growth sequencing; cyclin D1-Cln2 strain, peptide tiling library — enrichment score: 1.23.
For Saccharomyces cerevisiae; binding, competitive growth deep sequencing; cyclin D3-Cln2 fusion strain; peptide tiling library: enrichment score read 0.044.
The enrichment score was -0.176 (Saccharomyces cerevisiae; growth after mating arrest, competitive growth deep sequencing; strain without Cln2 fusion).
The enrichment score was -0.249 (peptide binding; yeast competitive growth; with: B2-Cln2 chimera).

Single results of other studies
`O=c1cc[nH]c(=O)[nH]1` gave a viability of 76.8% (HEK-293T/ACE2; concentration not given, 16 (unit not given); reference: vehicle).
With `C#C[C@]1(O)CC[C@H]2[C@@H]3CCC4=CC(=O)CC[C@]4(C)[C@H]3CC[C@@]21C` the viability was 93.2% (HaCaT; 100 µM, 60 h).
`C[C@H](N)[C@H](O)c1cccc(O)c1` has a viability of 101% (HEK-293T/ACE2; concentration not given, 16 (unit not given); reference: vehicle).
For `CC(NC(C)(C)C)C(=O)c1cccc(Cl)c1.Cl` (centres unmarked), “log2 fold change” read -0.02 (Sarcocystis neurona; parasite growth; concentration not given, first screen; reference: untreated).
